Published values of several laboratories.
Protocols differ between the studies behind these lines.
GSTO1: Glutathione S-transferase omega-1 (GSTO1, Homo sapiens, UniProt P78417)
Sequence of UniProt P78417 (whole entry, looked up): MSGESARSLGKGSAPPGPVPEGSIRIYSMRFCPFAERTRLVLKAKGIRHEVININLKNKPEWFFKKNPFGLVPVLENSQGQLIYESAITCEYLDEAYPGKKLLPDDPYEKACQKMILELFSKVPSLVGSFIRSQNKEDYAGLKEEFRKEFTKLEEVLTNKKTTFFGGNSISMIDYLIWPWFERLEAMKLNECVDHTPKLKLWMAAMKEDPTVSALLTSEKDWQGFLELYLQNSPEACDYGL
Succinate dehydrogenase complex: Succinate dehydrogenase complex (Sus scrofa, UniProt A5GZW8+D0VWV4+Q007T0+Q0QF01)
Sequence of UniProt D0VWV4 (whole entry, looked up): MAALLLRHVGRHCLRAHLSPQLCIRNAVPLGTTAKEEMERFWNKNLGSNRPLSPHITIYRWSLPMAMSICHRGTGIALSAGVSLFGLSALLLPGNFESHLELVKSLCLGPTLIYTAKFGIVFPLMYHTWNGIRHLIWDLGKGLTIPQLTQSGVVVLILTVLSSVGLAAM
Sequence of UniProt A5GZW8 (whole entry, looked up): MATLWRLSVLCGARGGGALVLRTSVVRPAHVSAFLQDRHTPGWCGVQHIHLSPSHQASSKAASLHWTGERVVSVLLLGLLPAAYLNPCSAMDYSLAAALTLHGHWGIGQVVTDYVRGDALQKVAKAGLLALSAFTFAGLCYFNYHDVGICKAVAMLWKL
Sequence of UniProt Q007T0 (whole entry, looked up): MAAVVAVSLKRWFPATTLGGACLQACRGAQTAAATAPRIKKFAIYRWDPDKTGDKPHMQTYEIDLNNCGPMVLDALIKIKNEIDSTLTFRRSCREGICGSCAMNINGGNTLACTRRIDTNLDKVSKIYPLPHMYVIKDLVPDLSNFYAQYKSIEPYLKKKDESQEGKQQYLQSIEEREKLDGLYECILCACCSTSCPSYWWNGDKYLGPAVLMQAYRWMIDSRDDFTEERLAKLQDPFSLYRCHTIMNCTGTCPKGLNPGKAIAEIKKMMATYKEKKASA
Sequence of UniProt Q0QF01 (whole entry, looked up): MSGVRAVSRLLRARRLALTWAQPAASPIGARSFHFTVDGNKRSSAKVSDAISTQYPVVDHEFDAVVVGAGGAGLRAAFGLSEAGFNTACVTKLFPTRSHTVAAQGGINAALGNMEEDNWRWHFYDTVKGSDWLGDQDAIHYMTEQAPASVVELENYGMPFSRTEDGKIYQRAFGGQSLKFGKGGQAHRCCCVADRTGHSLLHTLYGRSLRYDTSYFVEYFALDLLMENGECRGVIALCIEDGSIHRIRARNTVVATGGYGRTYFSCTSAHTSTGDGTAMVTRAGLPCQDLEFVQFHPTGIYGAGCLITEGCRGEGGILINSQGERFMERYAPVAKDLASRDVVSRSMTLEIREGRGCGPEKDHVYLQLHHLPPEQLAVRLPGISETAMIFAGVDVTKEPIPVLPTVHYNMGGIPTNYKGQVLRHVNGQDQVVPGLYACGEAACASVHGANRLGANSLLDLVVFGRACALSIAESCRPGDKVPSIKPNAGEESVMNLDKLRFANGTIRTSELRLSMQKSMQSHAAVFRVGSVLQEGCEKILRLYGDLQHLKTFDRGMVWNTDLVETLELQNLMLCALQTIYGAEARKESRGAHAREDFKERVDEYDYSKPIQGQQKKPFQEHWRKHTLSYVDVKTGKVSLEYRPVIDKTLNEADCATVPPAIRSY
GLO1: Lactoylglutathione lyase (GLO1, Homo sapiens, UniProt Q04760)
Sequence of UniProt Q04760 (whole entry, looked up): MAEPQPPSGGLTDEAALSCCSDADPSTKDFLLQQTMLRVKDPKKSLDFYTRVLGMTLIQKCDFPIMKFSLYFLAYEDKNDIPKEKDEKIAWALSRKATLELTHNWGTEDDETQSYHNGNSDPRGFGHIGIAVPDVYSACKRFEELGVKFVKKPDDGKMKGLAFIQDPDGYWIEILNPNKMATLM
AGER: Advanced glycosylation end product-specific receptor (AGER, Homo sapiens, UniProt Q15109)
Sequence of UniProt Q15109 (whole entry, looked up): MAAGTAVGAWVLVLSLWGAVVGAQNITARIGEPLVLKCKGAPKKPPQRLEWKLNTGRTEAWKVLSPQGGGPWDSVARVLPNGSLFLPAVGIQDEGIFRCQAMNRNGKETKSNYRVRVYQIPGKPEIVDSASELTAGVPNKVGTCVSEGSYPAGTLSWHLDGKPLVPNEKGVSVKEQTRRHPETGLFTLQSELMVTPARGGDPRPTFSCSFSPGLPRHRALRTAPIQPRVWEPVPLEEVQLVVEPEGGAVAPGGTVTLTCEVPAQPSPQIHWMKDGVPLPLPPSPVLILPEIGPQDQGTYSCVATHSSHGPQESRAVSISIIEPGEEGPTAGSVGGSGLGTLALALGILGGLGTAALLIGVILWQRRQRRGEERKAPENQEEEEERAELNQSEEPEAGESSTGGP
Sequence of UniProt Q9NYL2 (whole entry, looked up): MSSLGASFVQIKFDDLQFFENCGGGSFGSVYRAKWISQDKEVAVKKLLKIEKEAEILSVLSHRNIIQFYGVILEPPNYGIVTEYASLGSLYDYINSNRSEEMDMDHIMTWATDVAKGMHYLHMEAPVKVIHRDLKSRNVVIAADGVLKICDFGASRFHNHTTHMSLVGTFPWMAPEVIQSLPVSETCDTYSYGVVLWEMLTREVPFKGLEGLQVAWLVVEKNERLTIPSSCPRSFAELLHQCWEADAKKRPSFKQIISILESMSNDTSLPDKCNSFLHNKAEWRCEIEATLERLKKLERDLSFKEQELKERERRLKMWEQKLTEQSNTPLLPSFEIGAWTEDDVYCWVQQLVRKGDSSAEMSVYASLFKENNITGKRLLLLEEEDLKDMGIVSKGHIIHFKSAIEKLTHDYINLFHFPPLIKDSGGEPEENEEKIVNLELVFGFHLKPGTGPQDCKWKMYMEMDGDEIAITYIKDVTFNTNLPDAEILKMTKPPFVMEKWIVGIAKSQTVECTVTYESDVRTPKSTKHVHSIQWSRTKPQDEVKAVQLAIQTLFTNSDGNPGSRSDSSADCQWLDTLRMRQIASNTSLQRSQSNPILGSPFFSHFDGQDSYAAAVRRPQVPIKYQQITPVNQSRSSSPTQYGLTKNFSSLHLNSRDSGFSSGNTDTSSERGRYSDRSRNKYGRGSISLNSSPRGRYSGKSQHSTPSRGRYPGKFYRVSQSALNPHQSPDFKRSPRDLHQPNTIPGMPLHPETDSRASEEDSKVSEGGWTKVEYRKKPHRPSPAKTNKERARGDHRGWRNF
Sequence of UniProt P16389 (whole entry, looked up): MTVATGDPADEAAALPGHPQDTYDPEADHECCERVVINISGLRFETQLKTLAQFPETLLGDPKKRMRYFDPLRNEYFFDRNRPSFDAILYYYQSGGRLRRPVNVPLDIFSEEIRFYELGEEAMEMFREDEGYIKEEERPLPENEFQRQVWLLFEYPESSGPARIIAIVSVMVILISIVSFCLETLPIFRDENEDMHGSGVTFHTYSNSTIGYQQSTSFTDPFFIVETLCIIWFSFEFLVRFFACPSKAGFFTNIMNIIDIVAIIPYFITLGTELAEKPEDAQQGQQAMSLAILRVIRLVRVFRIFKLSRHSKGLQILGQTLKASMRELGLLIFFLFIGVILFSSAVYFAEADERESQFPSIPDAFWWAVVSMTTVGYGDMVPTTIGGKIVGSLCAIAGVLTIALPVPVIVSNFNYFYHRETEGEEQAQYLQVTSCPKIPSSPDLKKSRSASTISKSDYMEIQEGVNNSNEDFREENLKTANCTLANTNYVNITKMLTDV
Sequence of UniProt Q8IXJ6 (whole entry, looked up): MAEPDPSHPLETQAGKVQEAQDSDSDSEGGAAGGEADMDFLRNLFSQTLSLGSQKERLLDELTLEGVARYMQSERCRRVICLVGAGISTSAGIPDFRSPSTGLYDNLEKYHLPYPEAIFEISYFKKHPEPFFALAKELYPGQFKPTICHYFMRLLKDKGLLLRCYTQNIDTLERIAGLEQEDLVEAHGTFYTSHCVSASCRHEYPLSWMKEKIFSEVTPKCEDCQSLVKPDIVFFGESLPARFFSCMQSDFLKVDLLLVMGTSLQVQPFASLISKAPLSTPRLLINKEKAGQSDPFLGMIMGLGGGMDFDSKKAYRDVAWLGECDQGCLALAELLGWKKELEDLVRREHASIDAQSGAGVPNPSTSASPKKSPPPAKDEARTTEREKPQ
Sequence of UniProt Q05097 (whole entry, looked up): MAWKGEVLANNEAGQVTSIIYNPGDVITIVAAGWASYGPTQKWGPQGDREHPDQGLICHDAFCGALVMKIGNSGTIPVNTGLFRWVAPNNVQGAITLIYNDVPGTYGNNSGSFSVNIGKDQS

Cc1ccc(N(CCNC(=O)C(F)(F)F)C(=O)CCl)cc1 — inhibition (GSTO1; probe labelling, gel-based competitive ABPP; MDA-MB-435 soluble proteome; 100 nM, added: SE-Rh probe): 15%
O=C(Nc1ccccc1Nc1ccccc1)c1cccnc1Br — inhibition (Succinate dehydrogenase complex; enzyme activity, double-antibody sandwich ELISA; 2 µM): 25.6%
Nc1ccc(/N=N/c2ccc(S(N)(=O)=O)cc2)c2ccc(O)cc12 — inhibition (GLO1; enzyme activity, inhibitor; 25 µM): 50.2%
CC(=O)N[C@H]1NC[C@H](C(=O)O)[C@H](O)[C@@H]1O — inhibition (Sialidase-2 (Homo sapiens, UniProt Q9Y3R4); enzyme activity, inhibitor; 600 µM, pH 6): 52%
COc1ccc(NC(=O)c2cc3ccc(N(C)C)cc3s2)cc1 — inhibition (AGER; binding to AGE-BSA, competitive ELISA; 100 µM, 60 min): 59%
O=C(Nc1ccccc1Nc1ccccc1)c1cccnc1C(F)(F)F — inhibition (Succinate dehydrogenase complex; enzyme activity, double-antibody sandwich ELISA; 0.5 µM): 16.7%
NS(=O)(=O)c1ccc(/N=N/c2c(O)ccc3ccccc23)cc1 — inhibition (GLO1; enzyme activity, inhibitor; 25 µM): 72.5%
FC(F)(F)c1n[nH]cc1-c1nc2ccc3[nH]ncc3c2c2c1CCC2 — inhibition (FLT3 (Homo sapiens, UniProt P36888, ITD); enzyme activity, inhibitor, ADP detection; 0.1 µM): 55%
CC(=O)C12NC(C)(C)CC1(C)C(=O)C1=C2c2c(c3c4n2C(C)(C)CC2=C4C4(CC(C)(C)NC(C)(C4)C2=O)CC3(C)C)C(=O)C(C)(C)N1 (single isomer, unassigned; (+)) — inhibition (KCNA2 (Homo sapiens, UniProt P16389); ion current, inhibitor, patch clamp; HEK-293T; 10 µM): 72.5%
COc1cc(C(=O)NC2CCC(N3CCN(CC4CCC5(CCCC5)C4)CC3)CC2)c(F)cc1Nc1ncc2c(n1)N(C1CCCC1(F)F)CC(F)(F)C(=O)N2C (stereo not drawn) — inhibition (MAP3K20 (Homo sapiens, UniProt Q9NYL2); cell-free assay, TR-FRET; 10 µM): 0.33%
NC(=O)c1ccc(C(=O)NOCc2ccc(Sc3cccc(Cl)c3)c(C(F)(F)F)c2)cc1 — inhibition (SIRT2 (Homo sapiens, UniProt Q8IXJ6); cell-free assay, inhibitor; 100 µM): 21%
Oc1cc(O)c2c(c1)O[C@H](c1cc(O)c(O)c(O)c1)[C@@H](O)C2 (racemic) — inhibition (maltase, rat; enzyme activity, inhibitor; rat intestinal brush border vesicles; 10 µM): 78.5%
O=C(NC1CCCCC1)C(c1cccnc1)N(C(=O)CCl)c1ccc(F)cc1 (racemic) — inhibition (GSTO1; probe labelling, inhibitor, competitive ABPP; MDA-MB-435; 1 µM, 18 h, serum-containing medium): > 75%
COc1ccc(NC(=O)c2cc3cccc(Cl)c3s2)cc1 — inhibition (AGER; binding to AGE-BSA, competitive ELISA; 100 µM, 60 min): 45%
COC(=O)CCSc1nc2n(n1)C(c1cccc(OC)c1)C(C(=O)Nc1cncc(C)c1)=C(C)N2 (stereo not drawn) — inhibition (MTOR (Homo sapiens, UniProt P42345); enzyme activity, inhibitor, TR-FRET; 0.3 µM): 87.9%
O=C(CCl)N(CCNC(=O)C(F)(F)F)c1ccc(Cl)cc1 — inhibition (GSTO1; competitive ABPP; MDA-MB-435; 1 µM, 12 h, 10% serum): 65%
CC(C)COC(=O)c1cc(O)c(O)c(O)c1 — inhibition (lecA (Pseudomonas aeruginosa, UniProt Q05097); ligand displacement, FP; 4 mM): 8%
Cc1ccc(N(C(=O)c2cc3ccc(Cl)cc3s2)c2ccc(C)cc2)cc1 — inhibition (AGER; binding to AGE-BSA, competitive ELISA; 100 µM, 60 min): 0%

Excerpt of the above:
O=C(CCl)N(CCNC(=O)C(F)(F)F)c1ccc(Cl)cc1 — inhibition (GSTO1; competitive ABPP; MDA-MB-435; 1 µM, 12 h, 10% serum): 65%
